Measurements collected from several papers.
Every numbered part comes from another study and shows a few of its results, in no order. Substitutions count along the parent as printed.

Set 1
Target: RNA binding protein fox-1 homolog 2, RRM domain, GST-SBP tag (RBFOX2, Homo sapiens, UniProt O43251-10, residues 100-194)
Technique: RNA Bind-n-Seq
Form: RNA
Matrix: in vitro
Concentration: 365 nM
Notes: natural RNA segment, single round, ends assumed
Relative to: no-protein control
Direction: higher = stronger binding
Measurement: RBNS enrichment (R)
Shared flanks, not repeated: GGGAGUUCUACAGUCCGACGAUC … UGGAAUUCUCGGGUGCCAA
Construct (chain): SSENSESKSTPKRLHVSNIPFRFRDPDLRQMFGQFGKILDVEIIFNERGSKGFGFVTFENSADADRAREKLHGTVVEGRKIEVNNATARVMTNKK
Strand = AACUGCGACGAUUAAUUGUGGAUCUCCCCCUGCCCAUUGCCUGCUUGAGGGGCACCACUACUCCAGCCCAGAAGGAAAGGGGGGCAGCUCAGUGGCCCCAAGAGGGAGCU; result = 2.7
Strand = UAUUCAUCUUGUUGGAACCCCACCCCAUUUUCCCUGACAGAACAUUCCUAAGUCUCAAGGGCUAGUUUCCCUGAGGAGCCCAGGCCUAACCCUCUCUCUCUCAAGCUGCC; result = 0.626
Strand = GGGUUGAUGAGGGCCCUGGCACCACUGUCACCACCCACCCCUUCCUACCAGCUGCUGCUAGCCCUCUGUGGUUGUGCACCCCUCUUGCCCCCAUUCAGGGGCCGACUAAC; result = 0.353
Strand = UAGUUAAGCUGUAUAUUAGCAGUGAAGGUGUUAGAGAGAUGAGAUGAUGGUUUGAAAGUGUGUUGAAGACUAGACUAGAUUUGCAGAAAGAGUAGGACAGAAGAGCGGCG; result = 6.4
Strand = CAAACACUGGCCUUCUGUUCCUCUUGAAAUUUACCUCCCAACUUGUUCAUCUCUGCCUUUGGACUAAAUAGGGGCAUCUGUGCAAAACUGUAGAAGCCAUUUUGAAGGAU; result = 0.481
Strand = UGAUUUUCCUCCCUGGUUUGCAGCUGUUUUCAAAGCCCCCGAUAAUCGCUCUUUUCCACUCCAAGAUGCCCUCAUAAACCAAUGUGGCAAGACUACUGGACUUCUAUCAA; result = 0.824
Strand = UCCUGUGUGGUUGCCCCGUGUCCUCUGGCCUAGGGUUAAGUGUGCAAGAUAACUACUCGUGAGUAUUCAGAAUGUUGUUCCUAAUAAAUGCACUUGUUGUCUGUCUUCUU; result = 0.363
Strand = GCCCUGUUCCCUAAUAGAAACAUUCCCCUUGUUUUCCAGCAGUGGGUGGCUUCCUCGAACGAUUAAACAAACUAGGUGCUUGUAUAUAAUUUAUUACAGUUUACUCUACU; result = 0.4
Strand = AGUGCUGGACUUGGCCAUGGGUAGUCUGCAGCUCAAUUUAUAGAACAGUCCAAAGAGACUUUGCAAAACAUGAUAGGCAGGGACCUUUUCCUCUGUGUUUCAAUACCUAU; result = 0.57
Strand = UGAAGUUCUCAAGUUCACCCGUUAGGGAAAAGUUAUUUUGUUUACAUUAUUAUAAGGGAUUUGUUAUGUCUGUAAAGUGUAACCUAGGAAGGAUCAUCAACCAUCUAAUC; result = 0.267
Strand = GCUGUGCUGCUGCUCGAAGCAGAUGGUUUUGACUGUCUUUUUGCUCUUUCCUAUAUAAUGAAUAGAUGAGUGAAAGGAGUUUUCUUUUUCUCUUUAGUACUUACGUAUUG; result = 0.464
Strand = UCCUUCAGUACACAUCCUAUGGCGUGACCCCUCCCAGCCUCAGCCAUUCAGGGAACCGGCAGCGCCCACCUAGCGGAGCCGGCUUGGCCCCUCCUGAAAGGAUGGAAGGA; result = 0.602

Set 2
Target: Ras GTPase-activating protein-binding protein 1, RRM domain (G3BP1, Homo sapiens, UniProt Q13283)
UniProt Q13283, sequence (whole entry, looked up): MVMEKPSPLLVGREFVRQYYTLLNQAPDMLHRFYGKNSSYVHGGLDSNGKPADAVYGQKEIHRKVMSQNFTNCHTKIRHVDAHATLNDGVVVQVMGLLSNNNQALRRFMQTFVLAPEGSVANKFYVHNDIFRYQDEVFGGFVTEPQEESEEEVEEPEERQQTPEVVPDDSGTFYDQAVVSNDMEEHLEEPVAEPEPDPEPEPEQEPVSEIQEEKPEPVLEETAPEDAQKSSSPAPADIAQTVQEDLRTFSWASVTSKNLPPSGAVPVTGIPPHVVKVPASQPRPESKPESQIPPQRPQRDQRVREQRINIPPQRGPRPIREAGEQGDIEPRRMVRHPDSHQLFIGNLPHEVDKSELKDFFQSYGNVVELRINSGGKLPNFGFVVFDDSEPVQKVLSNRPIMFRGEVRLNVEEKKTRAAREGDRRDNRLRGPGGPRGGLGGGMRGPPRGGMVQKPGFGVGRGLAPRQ
Technique: RNA Bind-n-Seq
Form: RNA
Matrix: in vitro
Concentration: 1 µM
Notes: whole 134-nt RNA, ends assumed
With: 150 mM KCl
Relative to: input library
Direction: higher = stronger binding
Measurement: log2 enrichment
Shared flanks, not repeated: GGGAGUUCUACAGUCCGACGAUC … UGGAAUUCUCGGGUGUCAAGG
Strand = CUCAAGUCCUGUGCUACACAUCGUAUGUACCGAAUCGGUUUGGUUUGGGUUUGGAAAGUAUUAUGUUACGCCGUUCGGAUCUGCACUUCC; result = -0.175
Strand = AAGUCCUGUGCUACACAUCGUAUGUACCGAAUCGGGCCCCGGGCCCCGGGGCCCCGGAAAGUAUUAUGUUACGCCGUUCGGAUCUGCACU; result = -1.55
Strand = CAAGUCCUGUGCUACACAUCGUAUGUACCGAAUCGGUUUGGUUUUUUUGGAAAGGAAAGUAUUAUGUUACGCCGUUCGGAUCUGCACUUC; result = -0.0943
Strand = CUCAAGUCCUGUGCUACACAUCGUAUGUACCGAAUCGGUUUUUGGAGGAAAGGAAAGUAUUAUGUUACGCCGUUCGGAUCUGCACUUCCA; result = -0.144
Strand = CCUCAAGUCCUGUGCUACACAUCGUAUGUACCGAAUCGGUGGAAAGGUUUGGAAAGUAUUAUGUUACGCCGUUCGGAUCUGCACUUCCAG; result = -0.266
Strand = AAGUCCUGUGCUACACAUCGUAUGUACCGAAUCGGAAAAAAAGGUGGAAAAAAAGGAAAGUAUUAUGUUACGCCGUUCGGAUCUGCACUU; result = -0.00694
Strand = UAAGGCCAGUAAAAUUUUAGUACCUGGAGGUUUGACUCUAAUUUUUGCACUGAUGGUGCCAAAGGGCCCUGAGUCAAAAGGAUAGCCAAG; result = -0.283
Strand = UAACUUUAGAGGAGGAUCUGAUGGAUAUGGCAGUGGACGUGGAUUUGGGGAUGCCUAUAAUGGGUAUGGAGGAGGACCUGGAGGUGGCAA; result = -0.189
Strand = GUCCUGUGCUACACAUCGUAUGUACCGAAUCGGAAAAAGGGAAAAAGGGAAAAAGGGGAAAGUAUUAUGUUACGCCGUUCGGAUCUGCAC; result = 0.0713
Strand = CACAGACAACACGCACCCUCACAGACACAGAGGGAAGGGGUUGGGAUGGGGACAGGGUGCACAGCAGGGCGGGGUAGGACCCCAGCCCCU; result = 0.167
Strand = GUCCUGUGCUACACAUCGUAUGUACCGAAUCGGGGCCCCCGGGCCCCCGGCCCCCGGGAAAGUAUUAUGUUACGCCGUUCGGAUCUGCAC; result = -0.436
Strand = CUCAAGUCCUGUGCUACACAUCGUAUGUACCGAAUCGGAAGGGGAAGGGAAGGAAAGUAUUAUGUUACGCCGUUCGGAUCUGCACUUCCA; result = -0.211
Strand = AAGUCCUGUGCUACACAUCGUAUGUACCGAAUCGGUUUGGGGUUUGGGGUUUGGGGAAAGUAUUAUGUUACGCCGUUCGGAUCUGCACUU; result = -0.269
Strand = GCAGGAAGUAAAAACAAAUGGAAAUGCUUCGGAUAGUGGCAGGGGUGGGGGUUGCUCAGGAAAGGGUGGGAUGGGAGUGGGUAAAGAGUU; result = 0.743

Set 3
Target: Interferon regulatory factor 3, full length, phosphomimetic (IRF3, Homo sapiens, UniProt Q14653, residues 1-427, S386D/S396D/S398D/S402D/T404D/S405D)
Technique: protein-binding microarray
Form: double-stranded DNA, one strand shown
Matrix: in vitro
Concentration: 2540 nM top
Notes: 60-bp whole probe
With: salmon DNA 0.4 mg/ml
Relative to: random background probes
Direction: higher = stronger binding
Measurement: fitted relative affinity
Shared flanks, not repeated: GCCTAGCAC … GTCTTGATTCGCTTGACGCTGCTG
Target sequence (chain): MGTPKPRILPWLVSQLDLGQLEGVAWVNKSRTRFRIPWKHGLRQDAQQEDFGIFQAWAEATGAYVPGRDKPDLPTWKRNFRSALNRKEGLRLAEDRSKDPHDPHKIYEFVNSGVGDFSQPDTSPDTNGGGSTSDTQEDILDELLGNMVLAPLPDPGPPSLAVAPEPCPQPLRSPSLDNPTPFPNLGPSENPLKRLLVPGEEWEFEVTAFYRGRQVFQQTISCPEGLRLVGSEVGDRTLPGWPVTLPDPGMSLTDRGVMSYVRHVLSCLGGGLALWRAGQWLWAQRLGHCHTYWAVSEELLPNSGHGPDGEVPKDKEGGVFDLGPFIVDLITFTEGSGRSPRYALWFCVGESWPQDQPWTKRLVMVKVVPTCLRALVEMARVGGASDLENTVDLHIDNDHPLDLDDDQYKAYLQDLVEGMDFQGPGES
Strand = CTCGTGGTCCTGCCCTGCCTGTGCTAG; result = -0.871 z-score
Strand = CTCGCCTGGGGATGCTAACAGTGCTAG; result = -0.752 z-score
Strand = CTAGTTCTGCTTTGCCTTCAGTGCTAG; result = 0.9 z-score
Strand = TCATATATCTGAACCGCACTGTGCTAG; result = 0.688 z-score
Strand = TTAGATGTCGGGTATCGATTAGTGCTA; result = 0.228 z-score
Strand = CTAGATTTCGGGTATCGATTAGTGCTA; result = 1.61 z-score
Strand = GACGGTATCCTTTTCCTGTCGTGCTAG; result = 8.03 z-score
Strand = TTAGATTTCAGTATGGATTAGTGCTAG; result = 0.914 z-score
Strand = TCATCTTTCACTGGTCCTACTGTGCTA; result = 1.12 z-score
Strand = TTTTTTTTCATCATTGCCTGGTGCTAG; result = 1.66 z-score
Strand = AACGATGCAAGTGCCCTTCGGTGCTAG; result = -0.432 z-score
Strand = GACGGTTTCCTTCTCCTCACGTGCTAG; result = 9.21 z-score
Strand = TGACAGAGTGAGGTTTGGGCGTGCTAG; result = -1.19 z-score
Strand = GACGGTTTCGGGTTTCGGAACGTGCTA; result = 6.47 z-score
Strand = GACGGACTGCTTCTCATGACGTGCTAG; result = -0.341 z-score
Strand = CCCATTCCAGGGTTTTATGGAGTGCTA; result = 1.22 z-score
Strand = TTAGATTTCTGTATCGATTAGTGCTAG; result = 2.34 z-score
Strand = GACGGTCTCGGTTTCAGGACGTGCTAG; result = 3.17 z-score
Strand = TCAAGTATGTTCACTATTACTGTGCTA; result = 0.0982 z-score

Set 4
Target: CCNA1, cyclin fold, Cln2 fusion (human)
Technique: yeast growth competition, sequencing
Matrix: yeast
Notes: weak parent motif
Relative to: not given
Direction: higher = stronger binding
Measurement: normalised enrichment score
Starting sequence: GMNC docking peptide (human); KNAKRNLSSEFAN; partner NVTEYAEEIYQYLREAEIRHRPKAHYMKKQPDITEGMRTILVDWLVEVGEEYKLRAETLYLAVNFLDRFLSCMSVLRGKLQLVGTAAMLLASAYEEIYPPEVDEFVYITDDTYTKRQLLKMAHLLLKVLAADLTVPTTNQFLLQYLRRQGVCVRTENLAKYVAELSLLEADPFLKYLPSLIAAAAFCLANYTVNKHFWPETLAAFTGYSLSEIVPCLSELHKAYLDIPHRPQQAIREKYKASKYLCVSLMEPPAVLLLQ
Substitution = KNAYRNLSSEFAN [K4Y]; result = 0.318
Substitution = KNAKRNLSREFAN [S9R]; result = 0.766
Substitution = KNQKRNLSSEFAN [A3Q]; result = -0.111
Substitution = KNAKRNLSSEDAN [F11D]; result = 0.452
Substitution = KNRKRNLSSEFAN [A3R]; result = 0.179
Substitution = KNWKRNLSSEFAN [A3W]; result = 0.432
Substitution = KRAKRNLSSEFAN [N2R]; result = 1.21
Substitution = KNTKRNLSSEFAN [A3T]; result = 0.606
Substitution = KNAKRNLESEFAN [S8E]; result = 0.327
Substitution = KNAKWNLSSEFAN [R5W]; result = 0.319
Substitution = KQAKRNLSSEFAN [N2Q]; result = 0.668
Substitution = KNAKRNLSSEIAN [F11I]; result = 0.0781
Substitution = KNHKRNLSSEFAN [A3H]; result = 0.308
Substitution = KNAKRNLSSEFCN [A12C]; result = 0.517
Substitution = KNGKRNLSSEFAN [A3G]; result = 0.573
Substitution = KNAMRNLSSEFAN [K4M]; result = 0.0927
Substitution = KNAKRYLSSEFAN [N6Y]; result = -0.292
Substitution = KNAKYNLSSEFAN [R5Y]; result = 0.244
Substitution = KNAKRNTSSEFAN [L7T]; result = 0.558

Set 5
Target: Histone acetyltransferase KAT6A, winged helix 2, GST fusion (KAT6A, Homo sapiens, UniProt Q92794, residues 85-181)
Technique: protein binding microarray
Form: double-stranded DNA, one strand shown
Matrix: in vitro
Concentration: not given
Notes: 8-mer, flanks averaged, mean of 2 arrays, mostly near background
Relative to: not given
Direction: higher = stronger binding
Measurement: E-score
Construct (chain): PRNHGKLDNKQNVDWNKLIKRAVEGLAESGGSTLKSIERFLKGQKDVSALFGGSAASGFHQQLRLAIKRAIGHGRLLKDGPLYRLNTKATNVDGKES
Strand = CGACTACA; result = -0.0803
Strand = GCCCACCA; result = -0.0454
Strand = AAAATCAC; result = 0.0694
Strand = CAATGCAC; result = -0.0273
Strand = ACCTCGGA; result = 0.0525
Strand = TATCGCAA; result = 0.0833
Strand = ACCACTAC; result = -0.229
Strand = ACAACGGT; result = -0.145
Strand = AATAGGGT; result = -0.0931
Strand = ATATATAA; result = 0.0112
Strand = GCTAGAGC; result = 0.0495
Strand = CTGGACAG; result = 0.0698
Strand = GACAGAAA; result = 0.165
Strand = AATTAGAA; result = -0.135
Strand = ATATTACA; result = 0.0204
Strand = AAGCAGCA; result = 0.0775
